Experimental data of several laboratories.
Each line is one published result; not all experiments were run side by side. “And” joins repeats or separate records; there may be more than shown.
Target: Activin receptor type-1B (ACVR1B, Homo sapiens, UniProt P36896)
One construct used (P36896 24-505): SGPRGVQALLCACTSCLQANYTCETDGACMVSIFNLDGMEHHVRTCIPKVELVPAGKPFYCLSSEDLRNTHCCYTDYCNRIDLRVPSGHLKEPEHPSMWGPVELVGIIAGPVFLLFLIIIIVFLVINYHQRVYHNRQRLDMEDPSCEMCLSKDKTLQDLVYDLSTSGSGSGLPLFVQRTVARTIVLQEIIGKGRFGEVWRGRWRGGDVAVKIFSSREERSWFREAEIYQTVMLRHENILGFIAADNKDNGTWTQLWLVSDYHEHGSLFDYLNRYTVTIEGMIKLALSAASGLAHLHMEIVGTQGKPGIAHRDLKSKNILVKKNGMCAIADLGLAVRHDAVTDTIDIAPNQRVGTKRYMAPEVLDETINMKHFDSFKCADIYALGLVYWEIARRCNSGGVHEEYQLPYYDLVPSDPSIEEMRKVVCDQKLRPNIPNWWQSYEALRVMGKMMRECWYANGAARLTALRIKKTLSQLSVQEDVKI

Compound | test | system | conditions | scale | endpoint | result
CN1CC[C@@H](COc2cnc(C#N)cc2-c2ccn3nc(NC(=O)C4CC4)cc3c2)C1 | inhibitor, KinaseProfiler panel |  | 1 µM |  | inhibition | 18%
COc1c(OCCCN2CCOCC2)ccc2c1N=C(NC(=O)c1cnc(N)nc1)N1CCN=C21 | kinase activity, inhibitor |  | 1 µM | baseline: untreated control | remaining activity | 116%
C=CC(=O)N1CCCC(n2c(=O)c3ncccc3n(Cc3ccc(Oc4ccccc4)cc3)c2=O)C1 (centres unmarked) | cell-free assay, competition with immobilised ligand |  | 1 µM |  | remaining binding | 72%
NC(=O)C[C@H]1CCc2sc3ncnc(O[C@H]4CC[C@H](N5CCOCC5)CC4)c3c21 | enzyme activity, inhibitor |  | 10 µM |  | inhibition | -2%
COc1ccc(NC(=O)Nc2ccc3c(c2)C(=O)N(C(C)CO)CC(C)C(CN(C)Cc2ccc4c(c2)OCO4)O3)cc1 (centres unmarked) | binding, competition with immobilised ligand |  | 10 µM |  | remaining binding | 84%
CNS(=O)(=O)Nc1nccc(Cc2c(C)c3ccc(Oc4ncccc4F)cc3oc2=O)c1F | cell-free assay, competition with immobilised ligand |  | 10 µM |  | remaining binding | 85%
CN1CCN(Cc2ccc(NC(=O)c3cccc(C#Cc4cnc(N)c5ncccc45)c3)cc2C(F)(F)F)CC1 | cell-free assay, competition with immobilised ligand |  | 0.5 µM |  | remaining binding | 100%
COc1ccc(O)cc1-c1c[nH]c2ncc(-c3cncc(C(=O)N(C)C)c3)cc12 | binding, competition with immobilised ligand |  | 0.2 µM |  | inhibition | -16.4%
CNC(=O)C1CCN(c2cc(C)c(F)cc2NC(=O)c2ccc(-c3cc(O)ccc3C)c(C)c2)CC1 | binding, competition with immobilised ligand |  | 1 µM |  | remaining binding | 99%
COc1cc(Nc2nccc(-c3cnn4nc(OC)ccc34)n2)cc(C(F)(F)F)c1 | binding, competition with immobilised ligand |  | 1 µM |  | remaining binding | 100%
Nc1ncc(-c2cc(-c3cnn(CC(F)(F)F)c3)ncc2F)nc1C(=O)NC1CNCC(F)C1 (centres unmarked) | enzyme activity |  | 1 µM | baseline: DMSO control | remaining activity | 108%
Nc1ncc2c(n1)-c1c([nH]c3ccc(C4=CCOCC4)cc13)CCC2 | binding, competition with immobilised ligand |  | 1 µM |  | remaining binding | 89%
C=CC(=O)N1CCc2ccc(-n3c(=O)ccc4cnc5ccc(-c6cnn(C)c6)cc5c43)cc21 | KINOMEscan |  | 1 µM | baseline: DMSO control | remaining binding | 98%
Cc1nc2c(F)cc(-c3nc(Nc4ccc(CNC(=O)CCCCCCC(=O)NO)cc4)ncc3F)cc2n1C(C)C | enzyme activity, inhibitor |  | 1 µM |  | inhibition | 49%
N[C@H]1CC[C@H](Nc2nccc(-c3cccnc3Oc3ccc(NC(=O)NC4CC4)c4ccccc34)n2)CC1 | kinobead competition pulldown | HEK293/HCT116 lysate mixture | 10 µM, 1 h, 4 °C | lower = stronger competition | log2 LFQ intensity | 23.6 and 23.4 and 23.5
CN1CCN(Cc2ccc(-c3ccc(CO[C@H]4CCC[C@@H]4NC(=O)c4cc(-c5cnn(C)c5)cnc4N)cc3)cc2)CC1 | enzyme activity, inhibitor |  | 0.1 µM |  | inhibition | 13%
O=C=[N][Ru-4]123([n]4c5ccc(O)cc5c5c6c(c7cc(F)c[n+]1c7c54)C(=O)NC6=O)[S+]1CC[S+]2CC[S+]3CC1 (centres unmarked) | enzyme activity |  | 100 nM, human enzyme, added: 10 µM ATP | baseline: untreated | remaining activity | 123%
